Results pooled from the literature.
Protocols differ between the studies behind these lines.

Structure (SMILES)	organism	assay	system	setting	MIC
CC(C)C[C@@H]1NC(=O)[C@H](C)NC(=O)[C@H](NC(=O)[C@@H](N)COC(=O)[C@@H](C)NC(=O)[C@@H](CC(C)C)NC(=O)[C@@H](N)Cc2ccccc2)[C@H](C(N)=O)OC(=O)[C@H](CC(C)C)NC1=O	Bacillus subtilis Bacillus subtilis		ATCC 6051	tested as TFA salt	> 32 µg/mL
CC[C@@H](C)[C@@H](NC(=O)[C@@H](C)NC(=O)[C@@H](CCCCN)NC(=O)[C@@H](CC(C)C)NC(=O)[C@@H](C)NC(=O)[C@H](NC(=O)[C@@H](Cc1c[nH]cn1)NC(=O)[C@@H](CC(C)C)NC(=O)[C@H](NC(=O)[C@H](NC(=O)[C@@H](CCCCN)NC(=O)[C@@H](CCCCN)NC(=O)[C@@H](C)NC(=O)[C@@H](CO)NC(=O)[C@@H](CCCCN)NC(=O)[C@@H](Cc1ccccc1)NC(=O)[C@H](NC(=O)[C@@H](CCCCN)NC(=O)[C@@H](CC(C)C)NC(=O)[C@@H](Cc1ccccc1)NC(=O)[C@@H](CO)NC(=O)[C@@H](CCCCN)NC(=O)[C@@H](Cc1c[nH]c2ccccc12)NC(=O)[C@@H](CCCCN)NC(C)=O)[C@H](C)O)[C@H](C)O)C(C)C)[C@H](C)O)C(=O)N[C@H](CO)C(=O)N[C@H](CO)C(N)=O	Acinetobacter baumannii		1012, Mueller-Hinton broth	24 h, 37 °C	0.8 µM
C[N+]1=C2C(c3ccc(Cl)cc3)=[N+]([O-])c3ccccc3N2CCC1	Peptostreptococcus anaerobius				16 µg/mL
CC[C@H](C)[C@H](NC(=O)[C@@H](NC(=O)CN)C(C)C)C(=O)N[C@@H](Cc1ccccc1)C(=O)N[C@@H](CC(N)=O)C(=O)N[C@@H](C)C(=O)N[C@@H](CC(C)C)C(=O)N[C@@H](CCCCN)C(=O)NCC(=O)N[C@H](C(=O)N[C@@H](C)C(=O)N[C@@H](CCCCN)C(=O)N[C@H](C(=O)N[C@H](C(=O)N[C@@H](C)C(=O)N[C@@H](C)C(=O)N[C@@H](CCC(N)=O)C(=O)N[C@@H](CC(C)C)C(=O)N[C@@H](CC(C)C)C(=O)N[C@@H](CCCCN)C(=O)N[C@@H](CCCCN)C(=O)N[C@@H](C)C(=O)N[C@@H](CCCNC(=N)N)C(=O)N[C@H]1CSSC[C@@H](C(=O)O)NC(=O)[C@H](CO)NC(=O)[C@H](CCCCN)NC(=O)[C@H](CC(=O)O)NC(=O)[C@H](CC(C)C)NC(=O)[C@H](CCCCN)NC1=O)C(C)C)[C@@H](C)O)C(C)C	Staphylococcus aureus		MRSA NCTC 12493, Mueller-Hinton broth	with: KCl 4.5 mM	4 µM
C[N+]1=C2C(c3ccc([N+](=O)[O-])cc3)=[N+]([O-])c3ccccc3N2CCC1	Fusobacterium nucleatum	microbial growth	ATCC25586		0.25 µg/mL
c1ccc(CCNC2CCCc3c2[nH]c2ccc(C4CCCCC4)cc32)cc1 (stereo not shown)	Staphylococcus aureus	broth microdilution	HG001, cation-adjusted MHB		4 µg/mL
CC[C@H](C)[C@H](NC(=O)[C@H](CC(C)C)NC(=O)[C@H](CCC(N)=O)NC(=O)[C@H](CO)NC(=O)[C@H](CCCNC(=N)N)NC(=O)[C@@H](N)CO)C(=O)N[C@H](C(=O)N[C@@H](Cc1c[nH]cn1)C(=O)N[C@@H](CCC(N)=O)C(=O)N[C@@H](CCCNC(=N)N)C(=O)N[C@@H](CC(C)C)C(=O)N[C@@H](Cc1ccccc1)C(N)=O)C(C)C	Trichophyton rubrum	broth microdilution	ATCC 28189		> 400 µg/mL
CC(C)C[C@@H]1NC(=O)[C@H](C)NC(=O)[C@H](NC(=O)[C@H](CO)NC(=O)[C@@H](CCCCN)NC(=O)[C@@H](CC(C)C)NC(=O)[C@@H](N)Cc2ccccc2)[C@H](C(N)=O)OC(=O)[C@H](C)NC1=O	Bacillus subtilis Bacillus subtilis		ATCC 6051	tested as TFA salt	16 µg/mL
[O-][N+]1=C(c2ccccc2)C2=NCCCN2c2ncccc21	Eggerthella lenta	microbial growth	ATCC43055		≤ 0.06 µg/mL
CC1C(=NNC(=O)c2ccncc2)C(C)C(c2ccc(Br)cc2)OC1c1ccc(Br)cc1 (stereo not shown)	Aspergillus flavus	microbial growth			100 µg/mL
